Published values of several laboratories.
Parts stem from different laboratories: compare values within a part only.
Chain of UniProt P10721 (whole entry, unmodified, looked up): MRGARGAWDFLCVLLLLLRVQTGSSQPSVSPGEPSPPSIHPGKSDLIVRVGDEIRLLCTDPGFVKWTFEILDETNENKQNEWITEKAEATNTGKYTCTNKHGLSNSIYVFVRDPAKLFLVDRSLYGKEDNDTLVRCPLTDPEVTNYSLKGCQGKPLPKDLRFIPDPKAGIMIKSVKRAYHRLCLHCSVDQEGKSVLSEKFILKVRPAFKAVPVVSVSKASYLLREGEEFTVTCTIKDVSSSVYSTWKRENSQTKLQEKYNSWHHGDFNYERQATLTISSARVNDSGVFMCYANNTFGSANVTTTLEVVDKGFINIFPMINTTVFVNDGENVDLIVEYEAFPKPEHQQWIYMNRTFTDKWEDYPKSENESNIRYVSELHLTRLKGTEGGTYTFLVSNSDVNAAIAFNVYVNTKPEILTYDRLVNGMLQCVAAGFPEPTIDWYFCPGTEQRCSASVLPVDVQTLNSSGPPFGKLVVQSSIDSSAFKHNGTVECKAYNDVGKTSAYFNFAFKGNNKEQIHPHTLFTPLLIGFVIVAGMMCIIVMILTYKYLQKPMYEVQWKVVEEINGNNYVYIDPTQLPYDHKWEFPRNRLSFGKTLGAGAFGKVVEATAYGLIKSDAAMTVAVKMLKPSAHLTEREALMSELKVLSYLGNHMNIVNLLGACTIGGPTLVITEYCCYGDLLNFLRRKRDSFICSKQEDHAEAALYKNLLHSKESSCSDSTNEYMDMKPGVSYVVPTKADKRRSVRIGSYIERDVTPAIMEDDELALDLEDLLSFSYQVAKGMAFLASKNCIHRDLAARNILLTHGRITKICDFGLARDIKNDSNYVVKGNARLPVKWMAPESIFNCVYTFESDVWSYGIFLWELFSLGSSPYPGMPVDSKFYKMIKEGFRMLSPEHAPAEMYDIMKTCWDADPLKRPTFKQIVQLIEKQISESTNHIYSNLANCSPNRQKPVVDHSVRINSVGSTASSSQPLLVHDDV
Chain of UniProt Q6PHR2 (whole entry, looked up): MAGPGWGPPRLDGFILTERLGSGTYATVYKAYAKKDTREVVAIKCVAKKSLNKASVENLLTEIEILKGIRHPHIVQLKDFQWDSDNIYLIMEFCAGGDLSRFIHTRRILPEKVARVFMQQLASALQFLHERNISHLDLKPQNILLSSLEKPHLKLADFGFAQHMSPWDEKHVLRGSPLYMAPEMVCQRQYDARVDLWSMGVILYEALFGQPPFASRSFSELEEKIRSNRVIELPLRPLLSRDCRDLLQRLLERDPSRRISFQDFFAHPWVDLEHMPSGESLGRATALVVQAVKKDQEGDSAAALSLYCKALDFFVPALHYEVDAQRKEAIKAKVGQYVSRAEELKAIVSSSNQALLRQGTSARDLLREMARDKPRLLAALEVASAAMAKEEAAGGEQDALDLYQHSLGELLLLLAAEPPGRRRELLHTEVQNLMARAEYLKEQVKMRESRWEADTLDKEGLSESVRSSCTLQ
Chain of UniProt Q13177 (whole entry, looked up): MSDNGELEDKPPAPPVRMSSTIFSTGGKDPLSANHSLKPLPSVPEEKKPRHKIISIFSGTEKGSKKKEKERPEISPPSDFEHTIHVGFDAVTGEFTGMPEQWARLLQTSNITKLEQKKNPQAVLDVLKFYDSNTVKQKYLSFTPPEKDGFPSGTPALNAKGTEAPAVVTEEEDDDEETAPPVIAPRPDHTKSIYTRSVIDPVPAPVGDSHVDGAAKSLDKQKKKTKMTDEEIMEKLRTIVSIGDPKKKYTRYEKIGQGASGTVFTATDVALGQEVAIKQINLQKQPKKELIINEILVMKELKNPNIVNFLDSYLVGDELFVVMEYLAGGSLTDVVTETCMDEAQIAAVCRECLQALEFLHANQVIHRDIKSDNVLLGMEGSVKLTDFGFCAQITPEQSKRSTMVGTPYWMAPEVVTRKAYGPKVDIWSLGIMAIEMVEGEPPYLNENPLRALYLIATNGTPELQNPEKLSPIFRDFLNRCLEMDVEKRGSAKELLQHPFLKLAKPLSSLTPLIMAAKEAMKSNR
Chain of UniProt P49841 (whole entry, looked up): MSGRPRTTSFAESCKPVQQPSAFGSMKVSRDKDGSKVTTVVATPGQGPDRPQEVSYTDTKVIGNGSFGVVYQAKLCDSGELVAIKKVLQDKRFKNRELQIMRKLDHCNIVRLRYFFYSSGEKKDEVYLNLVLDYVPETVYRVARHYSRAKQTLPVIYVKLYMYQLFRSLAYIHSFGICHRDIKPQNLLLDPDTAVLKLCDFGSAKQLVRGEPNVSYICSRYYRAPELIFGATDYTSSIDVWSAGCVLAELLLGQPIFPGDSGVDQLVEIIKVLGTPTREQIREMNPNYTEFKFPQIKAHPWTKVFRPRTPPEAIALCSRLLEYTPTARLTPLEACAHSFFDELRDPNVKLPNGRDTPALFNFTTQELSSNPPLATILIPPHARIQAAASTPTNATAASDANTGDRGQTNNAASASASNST
Chain of UniProt Q13976 (whole entry, looked up): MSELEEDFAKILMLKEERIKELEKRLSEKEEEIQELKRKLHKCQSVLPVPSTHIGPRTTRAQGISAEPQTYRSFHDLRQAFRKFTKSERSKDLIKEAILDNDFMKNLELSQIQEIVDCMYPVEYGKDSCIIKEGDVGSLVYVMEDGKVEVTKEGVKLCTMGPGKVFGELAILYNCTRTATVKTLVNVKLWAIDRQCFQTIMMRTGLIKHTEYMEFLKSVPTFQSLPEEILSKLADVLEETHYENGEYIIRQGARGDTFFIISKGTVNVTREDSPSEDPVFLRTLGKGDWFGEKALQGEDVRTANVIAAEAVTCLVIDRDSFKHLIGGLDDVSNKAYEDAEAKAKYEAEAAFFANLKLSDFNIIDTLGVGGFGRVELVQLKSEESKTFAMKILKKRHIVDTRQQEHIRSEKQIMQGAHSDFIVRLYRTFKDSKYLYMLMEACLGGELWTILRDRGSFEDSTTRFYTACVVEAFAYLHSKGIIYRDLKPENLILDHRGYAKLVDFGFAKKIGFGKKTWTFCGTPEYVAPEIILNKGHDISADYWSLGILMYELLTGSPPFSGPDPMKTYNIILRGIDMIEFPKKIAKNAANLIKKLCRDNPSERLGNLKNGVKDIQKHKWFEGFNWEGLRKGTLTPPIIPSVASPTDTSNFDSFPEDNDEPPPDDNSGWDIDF
Chain of UniProt P36896 (whole entry, looked up): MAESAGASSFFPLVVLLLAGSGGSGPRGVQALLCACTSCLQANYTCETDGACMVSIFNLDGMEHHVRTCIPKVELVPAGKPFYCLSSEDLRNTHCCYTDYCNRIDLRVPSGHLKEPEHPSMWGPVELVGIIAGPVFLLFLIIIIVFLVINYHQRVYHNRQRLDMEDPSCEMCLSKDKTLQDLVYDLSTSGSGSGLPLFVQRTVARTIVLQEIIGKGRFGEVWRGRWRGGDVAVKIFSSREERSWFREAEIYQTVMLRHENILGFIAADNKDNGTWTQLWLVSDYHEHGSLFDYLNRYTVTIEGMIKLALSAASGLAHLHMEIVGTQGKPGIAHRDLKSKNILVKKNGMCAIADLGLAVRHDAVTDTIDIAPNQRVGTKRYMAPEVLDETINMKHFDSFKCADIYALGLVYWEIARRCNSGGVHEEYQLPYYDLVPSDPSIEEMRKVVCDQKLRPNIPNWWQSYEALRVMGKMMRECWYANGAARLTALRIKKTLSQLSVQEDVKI
Chain of UniProt Q9Y4K4 (whole entry, looked up): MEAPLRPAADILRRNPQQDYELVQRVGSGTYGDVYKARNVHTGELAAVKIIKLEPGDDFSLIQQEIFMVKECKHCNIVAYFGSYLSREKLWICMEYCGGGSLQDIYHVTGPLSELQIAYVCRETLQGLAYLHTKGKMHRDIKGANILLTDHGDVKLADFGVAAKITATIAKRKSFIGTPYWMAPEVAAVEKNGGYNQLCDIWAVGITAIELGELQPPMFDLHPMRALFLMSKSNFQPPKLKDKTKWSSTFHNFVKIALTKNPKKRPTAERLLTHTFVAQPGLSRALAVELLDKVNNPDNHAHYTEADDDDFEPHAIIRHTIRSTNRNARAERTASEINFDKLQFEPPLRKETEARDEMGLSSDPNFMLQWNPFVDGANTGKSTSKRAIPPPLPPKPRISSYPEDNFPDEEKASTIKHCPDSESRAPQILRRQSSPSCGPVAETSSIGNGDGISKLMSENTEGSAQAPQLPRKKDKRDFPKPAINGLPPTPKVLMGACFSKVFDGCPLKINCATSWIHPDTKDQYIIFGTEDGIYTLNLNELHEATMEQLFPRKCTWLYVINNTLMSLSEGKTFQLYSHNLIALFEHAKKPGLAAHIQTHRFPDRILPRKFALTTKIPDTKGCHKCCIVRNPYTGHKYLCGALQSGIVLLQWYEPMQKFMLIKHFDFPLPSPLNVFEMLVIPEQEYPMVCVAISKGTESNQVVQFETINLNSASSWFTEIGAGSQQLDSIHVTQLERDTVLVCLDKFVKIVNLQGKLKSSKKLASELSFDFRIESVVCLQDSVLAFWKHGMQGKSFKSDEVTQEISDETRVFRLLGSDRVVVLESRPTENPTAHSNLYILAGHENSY
Chain of UniProt P27361 (whole entry, looked up): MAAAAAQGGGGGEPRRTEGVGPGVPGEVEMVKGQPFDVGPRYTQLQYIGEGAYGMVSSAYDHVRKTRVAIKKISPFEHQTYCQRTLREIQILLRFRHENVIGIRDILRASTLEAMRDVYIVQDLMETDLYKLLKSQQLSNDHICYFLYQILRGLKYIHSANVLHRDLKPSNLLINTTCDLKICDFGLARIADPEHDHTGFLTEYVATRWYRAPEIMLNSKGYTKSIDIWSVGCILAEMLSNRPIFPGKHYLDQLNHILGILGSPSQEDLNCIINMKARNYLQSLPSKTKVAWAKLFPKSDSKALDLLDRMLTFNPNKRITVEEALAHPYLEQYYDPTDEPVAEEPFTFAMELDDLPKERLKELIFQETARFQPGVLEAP

Set 1 — read-out: enzyme activity; action: inhibitor; tested at: 0.5 µM; relative to: control
SMILES: CN([C@@H](Cc1ccc(OS(=O)(=O)c2cccc3cnccc23)cc1)C(=O)N1CCN(c2ccccc2)CC1)S(=O)(=O)c1cccc2cnccc12
| target | remaining activity |
| --- | --- |
| Activin receptor type-1B (ACVR1B, Homo sapiens, UniProt P36896) | 98.7% |
| MAP kinase-activated protein kinase 2 (MAPKAPK2, Homo sapiens, UniProt P49137) | 103% |
| Tyrosine-protein kinase JAK3 (JAK3, Homo sapiens, UniProt P52333) | 98% |
| Fibroblast growth factor receptor 1 (FGFR1, Homo sapiens, UniProt P11362) | 103% |
| Angiopoietin-1 receptor (TEK, Homo sapiens, UniProt Q02763) | 106% |
| Casein kinase I isoform gamma-3 (CSNK1G3, Homo sapiens, UniProt Q9Y6M4) | 104% |
| Tyrosine-protein kinase Lck (LCK, Homo sapiens, UniProt P06239) | 97.5% |
| Mitogen-activated protein kinase 3 (MAPK3, Homo sapiens, UniProt P27361) | 90.6% |
| Tyrosine-protein kinase FRK (FRK, Homo sapiens, UniProt P42685) | 101% |
| Glycogen synthase kinase-3 beta (GSK3B, Homo sapiens, UniProt P49841) | 96.6% |
| Serine/threonine-protein kinase TBK1 (TBK1, Homo sapiens, UniProt Q9UHD2) | 101% |
| Serine/threonine-protein kinase ULK3 (ULK3, Homo sapiens, UniProt Q6PHR2) | 98.6% |
| Mitogen-activated protein kinase kinase kinase 5 (MAP3K5, Homo sapiens, UniProt Q99683) | 99.2% |

Set 2 — technique: competition with immobilised ligand; tested at: 1 µM
SMILES: COc1cc(-c2cn(C3CCc4ccccc4N(CC(F)(F)F)C3=O)nn2)ccc1-n1ccc(C)n1 (stereo not shown)
| target | read-out | remaining binding [%] |
| --- | --- | --- |
| Epidermal growth factor receptor (EGFR, Homo sapiens, UniProt P00533, G719S) | cell-free assay | 100 |
| Serine/threonine-protein kinase 4 (STK4, Homo sapiens, UniProt Q13043) | cell-free assay | 100 |
| RAF proto-oncogene serine/threonine-protein kinase (RAF1, Homo sapiens, UniProt P04049) | cell-free assay | 98 |
| Mitogen-activated protein kinase kinase kinase kinase 5 (MAP4K5, Homo sapiens, UniProt Q9Y4K4) | cell-free assay | 100 |
| Activated CDC42 kinase 1 (TNK2, Homo sapiens, UniProt Q07912) | cell-free assay | 100 |
| cGMP-dependent protein kinase 1 (PRKG1, Homo sapiens, UniProt Q13976) | cell-free assay | 100 |
| Mast/stem cell growth factor receptor Kit (KIT, Homo sapiens, UniProt P10721, T670I/V559D) | cell-free assay | 92 |
| Tyrosine-protein kinase Yes (YES1, Homo sapiens, UniProt P07947) | cell-free assay | 100 |
| Ephrin type-B receptor 1 (EPHB1, Homo sapiens, UniProt P54762) | cell-free assay | 100 |
| Serine/threonine-protein kinase PAK 2 (PAK2, Homo sapiens, UniProt Q13177) | cell-free assay | 100 |
| Serine/threonine-protein kinase N1 (PKN1, Homo sapiens, UniProt Q16512) | cell-free assay | 100 |
| Serine/threonine-protein kinase ICK (CILK1, Homo sapiens, UniProt Q9UPZ9) | binding | 63 |
| Epithelial discoidin domain-containing receptor 1 (DDR1, Homo sapiens, UniProt Q08345) | cell-free assay | 100 |
| Dual specificity tyrosine-phosphorylation-regulated kinase 1A (DYRK1A, Homo sapiens, UniProt Q13627) | cell-free assay | 83 |
| BDNF/NT-3 growth factors receptor (NTRK2, Homo sapiens, UniProt Q16620) | cell-free assay | 93 |
| Mast/stem cell growth factor receptor Kit (KIT, Homo sapiens, UniProt P10721, V559D/V654A) | cell-free assay | 100 |

Set 3 — cell line: HH; tested at: 2 µM; time: 48 h; relative to: untreated
| SMILES | viability |
| --- | --- |
| COc1ncc(-c2ccc3nccc(-c4ccnnc4)c3c2)cc1NS(=O)(=O)c1ccc(F)cc1F | 40% |
| COc1cc(N2CCC(N)CC2)ccc1Nc1ncc(Cl)c(-c2c[nH]c3ccccc23)n1 | 80.1% |
| O=C(c1ccc(Nc2nccc(-c3cc4ccccc4s3)n2)cc1)N1CCC(N2CCCC2)CC1 | 52.2% |
| C#Cc1cccc(Nc2ncnc3cc(OCCOC)c(OCCO)cc23)c1 | 91.9% |
| CO[C@H]1C[C@@H]2CC[C@@H](C)[C@@](O)(O2)C(=O)C(=O)N2CCCC[C@H]2C(=O)O[C@H]([C@H](C)C[C@@H]2CC[C@H](n3cnnn3)[C@H](OC)C2)CC(=O)[C@H](C)/C=C(\C)[C@@H](O)[C@@H](OC)C(=O)[C@H](C)C[C@H](C)/C=C/C=C/C=C/1C | 51.6% |
| COc1cc2c(Nc3ccc(NC(=O)c4ccccc4)cc3)ncnc2cc1OCCCN1CCOCC1 | 75.3% |
| COc1cc2c(Oc3ccc4[nH]c(C)cc4c3F)ncnc2cc1OCCCN1CCCC1 | 96.4% |
| CN1CCN(c2ccc(C(=O)Nc3n[nH]c4ccc(Cc5cc(F)cc(F)c5)cc34)c(NC3CCOCC3)c2)CC1 | 67.4% |
| CCC[C@H](NC(=O)/C(C#N)=C/c1cccc(Br)n1)c1ccccc1 | 67.4% |
| CC(C)Nc1cc(-c2c[nH]c(C(=O)N[C@H](CO)c3cccc(Cl)c3)c2)c(Cl)cn1 | 71% |

Set 4 — cell line: mouse MPNST tumor cells; technique: high-content nuclear imaging; refers to: cell number; tested at: 10 µM; time: 12 h; setting: mean of 2 replicates; relative to: plate mean; direction: higher = more cells
| SMILES | nuclei count [z-score] |
| --- | --- |
| CNCCC(Oc1ccccc1OC)c1ccccc1 (stereo not shown) | 4.04 |
| CC(C)(C)c1ccc(-c2nc3c(N4CCN(Cc5ccc6nccnc6c5)CC4)cccc3[nH]2)cc1 | 3.38 |
| Cc1ncc([N+](=O)[O-])n1CC(O)CCl (stereo not shown) | -0.154 |
| Cc1cccc(C)c1OCC(=O)N[C@@H](Cc1ccccc1)[C@@H](O)C[C@H](Cc1ccccc1)NC(=O)[C@H](C(C)C)N1CCCNC1=O | 1.3 |
| CC(C)CNc1ccnc(NCc2csc(-c3ccccc3)n2)n1 | 0.62 |
| OCCN1CCN(CCCN2c3ccccc3Sc3ccc(C(F)(F)F)cc32)CC1 | -7.25 |
| COCCc1ccc(OCC(O)CNC(C)C)cc1 (racemic) | 2.08 |
| CC[N+](C)(CC)CCOC(=O)C(O)(c1ccccc1)C1CCCCC1 (stereo not shown) | 2.05 |
| CS(=O)(=O)CCNCc1nc(-c2ccc3ncnc(Nc4ccc(OCc5cccc(F)c5)c(Cl)c4)c3c2)cs1 | 2.74 |
| COc1cccc(-c2cc(=O)c3ccccc3o2)c1N | 6 |

For quick reference, copied from above (set 3):
| SMILES | viability |
| --- | --- |
| COc1ncc(-c2ccc3nccc(-c4ccnnc4)c3c2)cc1NS(=O)(=O)c1ccc(F)cc1F | 40% |
| COc1cc(N2CCC(N)CC2)ccc1Nc1ncc(Cl)c(-c2c[nH]c3ccccc23)n1 | 80.1% |
| O=C(c1ccc(Nc2nccc(-c3cc4ccccc4s3)n2)cc1)N1CCC(N2CCCC2)CC1 | 52.2% |
| C#Cc1cccc(Nc2ncnc3cc(OCCOC)c(OCCO)cc23)c1 | 91.9% |
| CO[C@H]1C[C@@H]2CC[C@@H](C)[C@@](O)(O2)C(=O)C(=O)N2CCCC[C@H]2C(=O)O[C@H]([C@H](C)C[C@@H]2CC[C@H](n3cnnn3)[C@H](OC)C2)CC(=O)[C@H](C)/C=C(\C)[C@@H](O)[C@@H](OC)C(=O)[C@H](C)C[C@H](C)/C=C/C=C/C=C/1C | 51.6% |
| COc1cc2c(Nc3ccc(NC(=O)c4ccccc4)cc3)ncnc2cc1OCCCN1CCOCC1 | 75.3% |
